# Experimental data from different studies.
# Parts stem from different laboratories: compare values within a part only.

# Sample 1
# Target: Ras GTPase-activating protein-binding protein 1, full length (G3BP1, Homo sapiens, UniProt Q13283)
# Chain of UniProt Q13283 (whole entry, looked up): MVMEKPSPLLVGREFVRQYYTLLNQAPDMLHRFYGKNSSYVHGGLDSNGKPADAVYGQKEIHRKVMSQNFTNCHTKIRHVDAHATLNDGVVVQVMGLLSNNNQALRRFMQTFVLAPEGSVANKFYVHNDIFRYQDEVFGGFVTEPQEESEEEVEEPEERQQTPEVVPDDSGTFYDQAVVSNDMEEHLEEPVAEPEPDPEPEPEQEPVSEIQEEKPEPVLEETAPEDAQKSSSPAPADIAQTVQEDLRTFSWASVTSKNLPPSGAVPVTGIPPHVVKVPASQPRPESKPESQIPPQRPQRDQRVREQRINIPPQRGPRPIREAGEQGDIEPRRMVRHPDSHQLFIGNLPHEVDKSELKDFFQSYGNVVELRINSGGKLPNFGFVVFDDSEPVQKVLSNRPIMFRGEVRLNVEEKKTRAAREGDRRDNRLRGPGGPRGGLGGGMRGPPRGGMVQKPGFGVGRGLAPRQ
# Technique: RNA Bind-n-Seq
# Form: RNA
# Medium: in vitro
# Tested at: 200 nM
# Notes: whole 134-nt RNA, ends assumed
# Added: 150 mM KCl
# Reference: input library
# Reading: higher = stronger binding
Strand,log2 enrichment
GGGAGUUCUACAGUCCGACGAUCUGUGAGGUGGAUUUUGUUUAUUUUUUUAGCUCAUUUCCAGGGGUGGGAAUUUUUUUUUAAUAUGUGUCAUGAAUAAAGUUGUUUUUGAAAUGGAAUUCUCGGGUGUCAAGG,-0.185
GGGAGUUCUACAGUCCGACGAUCAAGUCCUGUGCUACACAUCGUAUGUACCGAAUCGGAAAAAAAGGUUUGGUUUUUGGAAAGUAUUAUGUUACGCCGUUCGGAUCUGCACUUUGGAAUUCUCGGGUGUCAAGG,-1.41
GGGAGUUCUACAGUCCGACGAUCGUCCUGUGCUACACAUCGUAUGUACCGAAUCGGGAAAAAGGGAAAAAGGGAAAAAGGGGAAAGUAUUAUGUUACGCCGUUCGGAUCUGCAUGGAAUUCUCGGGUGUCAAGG,-0.208
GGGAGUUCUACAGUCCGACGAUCCUCAAGUCCUGUGCUACACAUCGUAUGUACCGAAUCGGGGCCGGCCGGGCCGGAAAGUAUUAUGUUACGCCGUUCGGAUCUGCACUUCCAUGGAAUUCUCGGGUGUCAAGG,-0.274
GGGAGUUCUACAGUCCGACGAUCCUCAAGUCCUGUGCUACACAUCGUAUGUACCGAAUCGGUUGGGUUGGUUGGGGAAAGUAUUAUGUUACGCCGUUCGGAUCUGCACUUCCAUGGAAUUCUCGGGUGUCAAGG,0.0773
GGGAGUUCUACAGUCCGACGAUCUGGCCCUGGUGGCAUGCGGGGAGGAAGAGGUGGCCUCAUGGAUCGUGGUGGUCCCGGUGGAAUGUUCAGAGGUGGCCGUGAUGGAGACAGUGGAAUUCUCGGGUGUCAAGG,0.217
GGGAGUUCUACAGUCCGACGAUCGCAGGAAGUAAAAACAAAUGGAAAUGCUUCGGAUAGUGGCAGGGGCGGGGGUUGCUAAGGAAAGGGUGGGAUGGGAGUGGGUAAAGAGUUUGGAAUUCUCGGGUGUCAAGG,1.2
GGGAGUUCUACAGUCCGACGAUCACUAUGCAGGUGGGCAUCUUUGGGAAGUGGGGCAAGGGGGGGAUAGGGAGGGGGGUAACACUUUGGGAACAGGUGGUCCCAGGUCGUUUCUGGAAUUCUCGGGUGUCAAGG,1.28
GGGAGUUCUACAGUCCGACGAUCCCUGUGCUACACAUCGUAUGUACCGAAUCGGCCCCCCGGGGCCCCCCGGGGCCCCCCGGGGAAAGUAUUAUGUUACGCCGUUCGGAUCUGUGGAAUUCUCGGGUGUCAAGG,-0.945
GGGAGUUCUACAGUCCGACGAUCCAAGUCCUGUGCUACACAUCGUAUGUACCGAAUCGGGAGGGAAAGGGAAAAAGGGAAAGUAUUAUGUUACGCCGUUCGGAUCUGCACUUCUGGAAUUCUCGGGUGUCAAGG,0.528

# Sample 2
# Target: RNA binding protein fox-1 homolog 2, RRM domain, GST-SBP tag (RBFOX2, Homo sapiens, UniProt O43251-10, residues 100-194)
# Technique: RNA Bind-n-Seq
# Form: RNA
# Medium: in vitro
# Tested at: 365 nM
# Notes: natural RNA segment, single round, ends assumed
# Reference: no-protein control
# Reading: higher = stronger binding
# Target sequence (chain): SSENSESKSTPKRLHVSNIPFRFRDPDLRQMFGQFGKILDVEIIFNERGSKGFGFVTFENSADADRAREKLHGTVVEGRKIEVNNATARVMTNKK
Strand,RBNS enrichment (R)
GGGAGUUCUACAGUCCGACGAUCCAUCUUGGCUGCAAUUCUGGACUCCCUACAGCAAAGGGAGAGUUGAGAUUCAAGUCCCACCCGGCUCUUUUGGAUGAACCGCUGAGAGCCUCAGGACUGUUUUUGGGGGGUGGAAUUCUCGGGUGCCAA,0.861
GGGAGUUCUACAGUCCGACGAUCAGAUUCAUUCCACUUGAAGUGUCUCCUGGGAUCCCCACAGCUGCGUAUGGCUGGGAAAUGGACUUAAGGCUUGGGCUUGAAUUGGUGGCUCCUACCUGUGAGGUCCCAUCUGGAAUUCUCGGGUGCCAA,0.285
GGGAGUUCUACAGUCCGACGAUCAGAUUUUACCUCUCAAAGGGUGAGAUUUGAAAUUUACACUAAAAAGACAACUUUACAUUUAAUGCUUCACUUAAUGAGACAUUCUUUUUUUUAUAAGUCUAUUUUUCUACUGGAAUUCUCGGGUGCCAA,0.395
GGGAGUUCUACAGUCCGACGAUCGCACACACACAAGUGCCCAGGCAAGGUGCUUGGCAGAACCGCAGAGUGGGAAGAGAGUACCGGCAUCGGGUUUCCUUGGGAUCAAUUUCAUUACCGUGUACCUUUCCCAUUGGAAUUCUCGGGUGCCAA,0.625
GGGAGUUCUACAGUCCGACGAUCUUGUUUUGUCUCCUAAAUUGUUGUAAUUGCAUUAUAAAAUAAGAAAAAUAUUAAUAAGACAAAUAUUGAAAAUAAAGAAACAAAAAGUUCUUCUGUUGAUUGAGUUUUAUUGGAAUUCUCGGGUGCCAA,1.08
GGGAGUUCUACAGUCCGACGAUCAUUUUUAAUAUUUAAGGCCUUGAAAUUAUAUUCCAAGGCAAAUCUAAAUGGGUGUAGUUGUAUAUGCACGAUGUAAUUUAAUGCUAAAGAGUACUUACAGCUUGAGGGAAUGGAAUUCUCGGGUGCCAA,0.564
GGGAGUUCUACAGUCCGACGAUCAGCCCAGGGGCAAAGGCAGUCAACUUGCAUGUGAUACAAGACAGGCCAGGCAGAGCUGGUGUGACUUGAGGUGGCGCCAGCCUCUCAGGCAUGGUGGCUGGGUUGGUGAUUGGAAUUCUCGGGUGCCAA,24.9
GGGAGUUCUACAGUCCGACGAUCUGUGUACUUCUAAACAGAGAAGGCUUAUAAAAGUAAAUGCAUUAAGGCCAAGUGCAGUGGCUCACACCGGUAAUCCCAGCACUUUGGGAGGCCGAGGUGGGAGGAUUGCUUGGAAUUCUCGGGUGCCAA,1.5
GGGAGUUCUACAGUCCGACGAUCGGCUUCUUCUUUGCCUGUUCCAAAAGCCAGGGCCCUGGGCCUGCUCUUCAUCUUGCGGGCCUCCUAGGACCCAGCCUUCCAAAGUCCUGGCUGACAGAUGCUGCUCUUGGUGGAAUUCUCGGGUGCCAA,0.355

# Sample 3
# Target: Interferon regulatory factor 7, full length, phosphomimetic (IRF7, Homo sapiens, UniProt Q92985, residues 1-503, S101K/S471D/S472D/S475D/S476D/S477D/S483D/S484D/S487D)
# Technique: protein-binding microarray
# Form: double-stranded DNA, one strand shown
# Medium: in vitro
# Tested at: 250 nM
# Notes: 60-bp whole probe
# Added: salmon DNA 0.4 mg/ml
# Reference: random background probes
# Reading: higher = stronger binding
# Shared flanks, not repeated: GCCTAGCAC … GTCTTGATTCGCTTGACGCTGCTG
# Target sequence (chain): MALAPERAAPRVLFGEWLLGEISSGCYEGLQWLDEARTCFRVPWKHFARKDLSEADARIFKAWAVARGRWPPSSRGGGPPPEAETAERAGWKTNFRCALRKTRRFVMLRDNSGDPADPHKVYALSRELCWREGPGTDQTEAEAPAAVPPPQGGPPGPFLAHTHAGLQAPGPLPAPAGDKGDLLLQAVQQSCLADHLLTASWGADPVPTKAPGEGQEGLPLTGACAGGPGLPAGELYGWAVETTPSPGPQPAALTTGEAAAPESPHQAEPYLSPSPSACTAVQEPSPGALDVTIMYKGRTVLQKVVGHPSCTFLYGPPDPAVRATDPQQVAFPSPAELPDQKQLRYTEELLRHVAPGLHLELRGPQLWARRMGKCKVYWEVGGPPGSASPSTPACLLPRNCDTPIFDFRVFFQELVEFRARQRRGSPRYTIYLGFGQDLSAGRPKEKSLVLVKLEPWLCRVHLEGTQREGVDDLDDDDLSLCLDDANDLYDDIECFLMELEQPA
Strand,log fluorescence [z-score]
GACGGTTTCGGACTGGGGATGTGCTAG,4.1
TCAAATTAGTGTTTTGCACTGTGCTAG,-0.228
GACGGTATCGGGTTTGGGGACGTGCTA,1.02
TCATATGTATATATGTGACTGTGCTAG,0.132
TTAGGTTGCGGTCTCGGTTAGTGCTAG,1.08
TTAGATTTCAGAATGGATTAGTGCTAG,0.311
GTCGGACTGGGGTATCGGGACGTGCTA,-0.283
TTAGGTATCCGTATCGGTTAGTGCTAG,0.617
GACGGACTGGGTATCGGGACGTGCTAG,-0.134
TAAGATTTCAGACTGGATTAGTGCTAG,0.336
TAGGCTCCAGGTTCTCTGAAGGTGCTA,-0.25
GAGGGACTGGACACTGGGGACGTGCTA,-0.666
TTAGGTATCCTTATCCTTTCGTGCTAG,0.312
TCATGTACGTCGTTTCCCACTGTGCTA,0.6
TTAGGACTGAGGACTGGGTTAGTGCTA,-0.35
CTCCCCCTCCCCCTCAGATCGTGCTAG,-0.203
GGCGGACTGGACTTTCGGGACGTGCTA,-0.463
TTAGGACTGGCGACTGGGTTAGTGCTA,-0.476
TCACTCTTCCTTTACTTACTGTGCTAG,0.949
ATATGTGTATATATAATATAGTGCTAG,-0.058
GACGCTTTCGGGTATCGGGACGTGCTA,1.44
CCATACTTCCCACTGGTCTTGTGCTAG,1.11
GACTGTATCCTTATCCTGACGTGCTAG,0.29
GACGTTTTCGGGTATCGAGACGTGCTA,2.15

# Sample 4
# Target: Histone acetyltransferase KAT6A, winged helix 1, GST fusion (KAT6A, Homo sapiens, UniProt Q92794, residues 1-85)
# Technique: protein binding microarray
# Form: double-stranded DNA, one strand shown
# Medium: in vitro
# Tested at: not given
# Notes: 8-mer, flanks averaged, mean of 2 arrays, mostly near background
# Reference: not given
# Reading: higher = stronger binding
# Target sequence (chain): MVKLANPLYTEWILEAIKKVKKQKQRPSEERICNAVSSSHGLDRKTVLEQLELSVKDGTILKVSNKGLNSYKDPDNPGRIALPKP
Strand,E-score
GTGTTTTA,0.0579
AAAGCCCC,-0.0976
GATGAGTA,-0.282
CTTTACGC,0.213
CAATCCTA,-0.122
CGTTGAAA,-0.1
AATATGCG,0.0627
CCCGGAAG,0.175
ATGCTGAC,-0.205
CTTTTGGA,-0.0718
CGTTCGGA,0.152
AGCACACT,-0.0373
GCTTCTAC,0.0159
AAGCGCCA,0.142
CCGAACGA,-0.0533
AGAAGATG,-0.0515
CTCCTAAG,-0.0886
ACCATTGG,-0.129
AAATAAGG,-0.104
TGCCAGAA,-0.229
ATAAGTGG,-0.177
CGTTGCCC,0.199
AGATAAAT,-0.264
ACATGGAT,-0.093
CGGCAGCC,0.329
